{"data": "Experimental data gathered from unrelated publications", "note": "Numbered parts are unrelated; each lists some results of a single study."}
{"data": "Sample 1", "target": "RING finger protein unkempt homolog, zinc fingers 1-6, GST-SBP tag (UNK, Homo sapiens, UniProt Q9C0B0, residues 30-357)", "technique": "RNA Bind-n-Seq", "form": "RNA", "sample": "in vitro", "tested at": "not given", "notes": "RNA with constant flanks, human and mouse sites, ends assumed", "reference": "input RNA pool", "direction": "higher = stronger binding", "Target sequence (chain)": "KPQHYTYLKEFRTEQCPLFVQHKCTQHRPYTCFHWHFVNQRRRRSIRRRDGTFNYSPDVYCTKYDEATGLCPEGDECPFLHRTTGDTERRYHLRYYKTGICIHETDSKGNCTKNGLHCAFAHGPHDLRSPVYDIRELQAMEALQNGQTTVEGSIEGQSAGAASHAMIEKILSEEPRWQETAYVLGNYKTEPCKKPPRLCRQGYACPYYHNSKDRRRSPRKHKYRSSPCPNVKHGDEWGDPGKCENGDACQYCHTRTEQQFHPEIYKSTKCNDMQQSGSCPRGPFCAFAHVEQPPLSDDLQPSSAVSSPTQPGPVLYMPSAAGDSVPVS"}
{"Strand": "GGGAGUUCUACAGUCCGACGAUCAUGGACCUGGCAGCCAAUGAGAAGGCCGUUCAUGCAGACUUUUUUAAUGAUUUUGAAGACCUUUUUGAUGAUGAUGAUGUCCAGUGAGGCCGCCCGGUCCUAUGUGCUCCAUGUCUGUGACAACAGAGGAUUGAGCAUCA", "bound/input enrichment [ratio]": 0.155}
{"Strand": "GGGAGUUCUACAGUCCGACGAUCUUGUUUUGCUCAUUUGAAGUCAUUUGCCAUUUUUUUGGCCUUUUGUGGAACUCUGCUGCUUUUAGAAGAAUUAUGAAAAAUAAUUGCCAUCAACAAUAUUUUGAGGCAGUAAAACCCCUUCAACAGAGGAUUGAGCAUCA", "bound/input enrichment [ratio]": 1.48}
{"Strand": "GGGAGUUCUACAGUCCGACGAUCGUUUAGGCCUUGCCAGUUUUCCGAAGUCUCUGAUUAGUUGACAGUAUUAACACUAAAUUGCAGUUUACAGUAUUUCUACAUUACAGCCAUAUGUAACAUCAAGCCAUCGAUUGUGUACUUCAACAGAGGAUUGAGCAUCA", "bound/input enrichment [ratio]": 0.405}
{"Strand": "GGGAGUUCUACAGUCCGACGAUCACAGACAGCUCUGAAGAAGCGGCAGCUGCACACAACCUGGGAGGAGGGCCUGGCCCUGCCCCUGGGUGAGGAAGAGCUCCCCACAGCUACCCUGACACUCACCCUGCGCACCUGUGACCGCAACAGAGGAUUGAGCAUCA", "bound/input enrichment [ratio]": 0.171}
{"Strand": "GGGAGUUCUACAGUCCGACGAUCAACAAAAGUUGACCCAAAAAAUCGUACUGUGUAAUCUUGGCUGGCAAUAAAGUCAUCAUAAAGUUCACCUGAAAACUGAUGUUUGGACAGUUUGCAUAUAUGCCUGUAAUCCCAGGUACUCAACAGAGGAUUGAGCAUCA", "bound/input enrichment [ratio]": 0.038}
{"Strand": "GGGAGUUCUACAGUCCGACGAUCUAUGUUUACGGAGUCCUGUUUAGUUUGGCAGAAAGCAGAAAGAAAACUGAGAGACUUGCUUUUAGAAAGAACAGACUUCCACCAGAAUUUUCACCAGUGAUCAUUAAAGAAUGGGCAGCUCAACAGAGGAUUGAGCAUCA", "bound/input enrichment [ratio]": 0.689}
{"Strand": "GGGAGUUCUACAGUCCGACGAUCAAGAGGCACAGUUGGUUCAAGGCAAGUGGUACCAUCAAGAAGUUCCGAGCUGGCCUCAGCAUCUUCUCACCCAUUCCCAAGUCUCCCAGUUUUCCUAUCAUACAGGACUCUAUGCUGAAACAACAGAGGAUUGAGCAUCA", "bound/input enrichment [ratio]": 0.137}
{"Strand": "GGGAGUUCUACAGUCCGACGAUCACUUCUCCAUCCUGGACGAGGCGCAAGUGCUGGCGAGCCAGAUGCGGAGGCUGGCUGCCGAGGAGCUGGGGGUGGUCACCAUGCAGAGGAUCUUCAAUUCGUUGGUUUACACAGAGAAGACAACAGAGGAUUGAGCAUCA", "bound/input enrichment [ratio]": 0.0753}
{"data": "Sample 2", "target": "RNA binding protein fox-1 homolog 2, RRM domain, GST-SBP tag (RBFOX2, Homo sapiens, UniProt O43251-10, residues 100-194)", "technique": "RNA Bind-n-Seq", "form": "RNA", "sample": "in vitro", "tested at": "365 nM", "notes": "natural RNA segment, single round, ends assumed", "reference": "no-protein control", "direction": "higher = stronger binding", "Residues (chain)": "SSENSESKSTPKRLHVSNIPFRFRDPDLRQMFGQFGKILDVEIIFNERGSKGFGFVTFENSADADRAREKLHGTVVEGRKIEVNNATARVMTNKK"}
{"Strand": "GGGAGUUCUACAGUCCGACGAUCCCAAUUACAUAGUCAGCUACAUAAUUGGCUUGCUUAUACAAAGAUAAGCAAGAGUCUUUCAUUGUCAGAAUAAGUAUUUUUCACGAUCUGUUUGAAGAGCAUCAUUGCUAUGGAAUUCUCGGGUGCCAA", "RBNS enrichment (R)": 0.329}
{"Strand": "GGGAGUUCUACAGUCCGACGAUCAUACCACAUACGCUGCACUGUUCUUAGAGGGUUUCCAUACUUACCACCGAUCUACAAGGGUUGAUCCCUGUUUUUACCAUCAAUCAUCACCCUGUGGUGCAACACUUGAAUGGAAUUCUCGGGUGCCAA", "RBNS enrichment (R)": 0.412}
{"Strand": "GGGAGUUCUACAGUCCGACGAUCAUCCAUUAUCUUGGCUGUGAGCUCCUUGGGUACGGGUACCUUGUAUGUUUACUUUUAUAUCCCUAGCACAAAGCAAGUGCCUGGCACAUAGUCAGUGCCCUAAGUAUUCGUGGAAUUCUCGGGUGCCAA", "RBNS enrichment (R)": 0.478}
{"Strand": "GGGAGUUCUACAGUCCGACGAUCGAGAAACUUUUUUCCUACAAAGACCUUGCUUGAAACCACAAAAGUUUUGCUGGCACGAAAGAAACUAGAUGGAAAUAUAUGUAAUUCUCUCAUAUUUAAAAACGUAAUCUUGGAAUUCUCGGGUGCCAA", "RBNS enrichment (R)": 0.418}
{"Strand": "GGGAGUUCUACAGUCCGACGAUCGACGUAAAUUUUGAGAGAAAAGUCAAAGGUGCUUCAGCCUUGUACUGUGUAUAUAUAUUAAAAAAAAAACAAAGUUUUGUAUGUUUUUAUUACUUUAACUAUUGUUAUAAUGGAAUUCUCGGGUGCCAA", "RBNS enrichment (R)": 1.03}
{"Strand": "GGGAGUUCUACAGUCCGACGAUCCAGUUGCCACACCAUGGGGUGGAGACGUGGGUCACCACGGGCUUGGGAGCAAGCGCCUUCUGCAGCACAGGAAGCCGAAGCUGGGGUCAGGUGAGGUCGCUACCCCUGGAUGGAAUUCUCGGGUGCCAA", "RBNS enrichment (R)": 0.282}
{"Strand": "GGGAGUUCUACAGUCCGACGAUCGGGAACAACUGAGCAUCAAAACCGGCUUUGCUUUACUUCCUGGCAGGCUGCAGCCAAGGGGACUGAGCAGCAGGCACCCAAUGCCACCAGCUCGUCUCUUCCUAGCAAGCUGGAAUUCUCGGGUGCCAA", "RBNS enrichment (R)": 0.599}
{"Strand": "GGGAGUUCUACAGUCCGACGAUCGCAGGGUCACACGCACCGUGUCCCCACCCAGGACAGCAGACACCCGCCAGAGUGUGCGCGCCCAGUGACUGCACCCCGGCCCUCAUCACCCACCGGCACUGAUCGGGGCAUGGAAUUCUCGGGUGCCAA", "RBNS enrichment (R)": 1.49}
{"Strand": "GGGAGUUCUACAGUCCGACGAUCAAUAACUAGCUGGGAAAAGACGAUGUAAUUAUUUCGGGGCUCUGCGGAACCUUCUCUGUACAGCGCCCCCUUUCUGUUGUGCUAUUGGUUGCAGCUGCCAUGCUCAGAAUUGGAAUUCUCGGGUGCCAA", "RBNS enrichment (R)": 0.385}
{"data": "Sample 3", "target": "PABPC1L2, full length, GST fusion (mouse, UniProt A0ABA7IW68)", "technique": "RNAcompete", "form": "RNA", "sample": "in vitro", "tested at": "20 nM", "notes": "7-mer, probes averaged, single round", "reference": "mean of 7-mers", "direction": "higher = stronger binding"}
{"Strand": "GCUAGAA", "7-mer Z-score": 0.244}
{"Strand": "UCAAGCC", "7-mer Z-score": -0.193}
{"Strand": "GCAUGGC", "7-mer Z-score": -0.0554}
{"Strand": "GAGUUGG", "7-mer Z-score": -0.146}
{"Strand": "GCGGAGU", "7-mer Z-score": -0.101}
{"Strand": "CAGUUCG", "7-mer Z-score": -0.436}
{"Strand": "CAAUGUG", "7-mer Z-score": -0.0554}
{"Strand": "GUGUUAA", "7-mer Z-score": -0.17}
{"Strand": "UCGGUUA", "7-mer Z-score": -0.124}
{"Strand": "UUGAACU", "7-mer Z-score": -0.0428}
{"Strand": "GUGUCUC", "7-mer Z-score": -0.287}
{"Strand": "UCGCUGU", "7-mer Z-score": -0.492}
{"Strand": "UGGCCAC", "7-mer Z-score": -0.244}
{"Strand": "UUAAAGG", "7-mer Z-score": 0.24}
{"Strand": "CCUACUA", "7-mer Z-score": -0.17}
{"Strand": "CUGGUAG", "7-mer Z-score": -0.161}
{"Strand": "CAAAUUG", "7-mer Z-score": 0.269}
{"Strand": "CACCGAG", "7-mer Z-score": -0.012}
{"Strand": "UACCCGU", "7-mer Z-score": -0.316}
{"Strand": "GGUUAGU", "7-mer Z-score": -0.0826}
{"Strand": "AAUUACG", "7-mer Z-score": 0.254}
{"data": "Sample 4", "target": "Hepatocyte nuclear factor 3-alpha (Foxa1, Mus musculus, UniProt P35582, residues 1-468, full length assumed)", "technique": "EMSA with sequencing", "form": "double-stranded DNA, one strand shown", "sample": "in vitro", "tested at": "10 and 20 nM", "notes": "whole designed probe, mean of two concentrations, ends assumed", "reference": "negative control set to 0", "direction": "higher = stronger binding", "Construct (chain)": "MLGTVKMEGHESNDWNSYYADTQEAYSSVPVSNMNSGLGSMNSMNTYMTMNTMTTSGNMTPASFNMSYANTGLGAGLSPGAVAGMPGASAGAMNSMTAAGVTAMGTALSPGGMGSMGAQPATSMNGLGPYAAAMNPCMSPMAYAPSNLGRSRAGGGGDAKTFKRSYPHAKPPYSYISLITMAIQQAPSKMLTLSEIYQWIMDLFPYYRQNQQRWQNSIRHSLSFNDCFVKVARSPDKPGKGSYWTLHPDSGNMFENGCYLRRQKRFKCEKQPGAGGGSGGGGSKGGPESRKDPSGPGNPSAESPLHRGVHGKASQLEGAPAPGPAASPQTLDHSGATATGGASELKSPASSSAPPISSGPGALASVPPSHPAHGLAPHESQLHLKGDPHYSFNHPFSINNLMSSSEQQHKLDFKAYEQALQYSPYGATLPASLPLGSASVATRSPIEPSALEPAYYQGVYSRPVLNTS"}
{"Strand": "GTGAGCGGTGCCCATTGATGGGGAACTAATGTATTATTTAGGAATCTACTTATGGGACCCATATCCATGAGAAACGTGAAGAGCGAGAAGCAAGATTCTGTAACACTGTCCACGATATTGTAAACAGAGGAGGCAGGGGTCTCATTCCTGTCTTTGCTCTTGGAAGGGCTCAGGAGCTGCTCTTGATTCTAGGTATGCCATTTCCTTTGTATTTAGGCGTTTCACTGGGATCGTGGGGAC", "normalised bound fraction [ratio]": 0.213}
{"Strand": "GTGAGCGGTGCCCATTGATGGGGAACACCCCTGAACTTAAATAAAAGTTAACAAACCCCACAAATCCCTACATGAAAAGACAGGGCTAATTAGCTAATTGGTAGTAATACTATTAGCAGAGATTACTGAGTGCTTGTATCAGCCAGACACTGGTCTCAGAGCTTGAGATGCTTTAGCTCATTAAGTTAATTGGCCCATGAGTTGGGTACCATTACTGCCTTTCACTGGGATCGTGGGGAC", "normalised bound fraction [ratio]": 0.0719}
{"Strand": "GTGAGCGGTGCCCATTGATGGGGAACATCTTCCCCCTCTTCCTTGCCCCACCAGCTCACCTTCCCGGGTTATTTGCAGATAGGAAAATAAATAAAGCCGGCATTCGTTCCCTTATCACTGGCGCAAACTGCTGTTTGCTCTGGATGAATCATGGTCCTTTGGCGACGCCAGGCTCCGGGAGAGCAAAGCACCGTGTCAGGGCCATGATCCGGGGTGGCCTTTCACTGGGATCGTGGGGAC", "normalised bound fraction [ratio]": 0.366}
{"Strand": "GTGAGCGGTGCCCATTGATGGGGAACTAAGTTTGTCTTTTCTAATGAAGAAAAAAAAGAGTTTGAGAAAGGAACGATACCAATCTATGATGATCCATCAGCATCGCATCCCAGCCTGTGTAATCTTGAAGTGAAAGGGACAGGGAGAAGCCAGGGCCAGAAAGTGCATTTAAACCAGATGGTTCAGTCACAGCGCTGGCCTTAAGTGTCTTACCCAGCATTTCACTGGGATCGTGGGGAC", "normalised bound fraction [ratio]": -0.0484}
